Results collected from several papers.
A part holds a random share of what one study measured. Substitutions count along the parent as printed.

Set 1
Target: CCNA1, cyclin fold, Cln2 fusion (human)
Method: yeast growth competition, sequencing
Medium: yeast
Setting: strong parent motif
Relative to: not given
Reading: higher = stronger binding
Starting sequence: RBL2 docking peptide (human); STTRRRLFVENDS; partner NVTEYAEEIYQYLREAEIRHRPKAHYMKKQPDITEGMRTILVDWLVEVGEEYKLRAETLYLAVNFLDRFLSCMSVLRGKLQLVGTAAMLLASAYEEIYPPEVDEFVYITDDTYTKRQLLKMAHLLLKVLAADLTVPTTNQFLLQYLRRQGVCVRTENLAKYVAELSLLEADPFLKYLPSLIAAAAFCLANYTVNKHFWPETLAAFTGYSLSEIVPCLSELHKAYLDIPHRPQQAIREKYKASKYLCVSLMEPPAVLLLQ
Under “normalised enrichment score”, `R6L` is recorded as 0.628.
`S1M` — result for “normalised enrichment score”: 0.581.
`L7W` — result for “normalised enrichment score”: 0.191.
Under “normalised enrichment score”, `L7F` is recorded as 0.134.
`V9Y`: “normalised enrichment score” 0.679.
For `T2H`, “normalised enrichment score” read 0.555.
Under “normalised enrichment score”, `R5L` is recorded as 0.228.
Under “normalised enrichment score”, `R5I` is recorded as 0.24.

Set 2
Target: Sal-like protein 4, full length isoform B (SALL4, Homo sapiens, UniProt Q9UJQ4-2, residues 1-616)
Method: universal PBM
Form: double-stranded DNA, one strand shown
Medium: in vitro
Tested at: not given
Setting: 8-mer, flanks averaged, mean of replicates
Reading: higher = stronger binding
With `AGGTTATC` the E-score was 0.0901.
`AAAGATCA` has an E-score of 0.138.
The E-score of `GGATCACA` is reported as 0.0407.
With `CTGTAAAG` the E-score was 0.0787.
The E-score of `AGTGTCTC` is reported as -0.207.
For `ATGACCCG`, the E-score was -0.158.
The E-score of `ACACTCAG` is reported as -0.138.
With `ACAGCACC` the E-score was -0.262.

Set 3
Target: Myc proto-oncogene protein, bHLH-zipper, MAX partner unstated (MYC, Homo sapiens, UniProt P01106, residues 368-449)
UniProt P01106, sequence (368-449, looked up): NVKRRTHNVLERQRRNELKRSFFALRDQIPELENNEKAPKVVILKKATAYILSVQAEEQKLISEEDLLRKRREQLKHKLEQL
Method: protein-binding microarray
Form: double-stranded DNA, one strand shown
Medium: in vitro
Tested at: not given
Setting: k-mer, scored over probes, only values ≥0.25
Reading: higher = stronger binding
`ATGTGCAG` has an E-score of 0.291.
`GACATGCA` gave an E-score of 0.288.
With `ATGCCGCG` the E-score was 0.271.
For `ACGTGCTA`, the E-score was 0.442.
With `GGACAGCA` the E-score was 0.288.
For `CATACACG`, the E-score was 0.373.
With `GCATGTCC` the E-score was 0.376.
`GCGTGCGA` has an E-score of 0.414.

Further values, each from its own experiment
For `O=C1NC(=O)C(c2c[nH]c3ccccc23)=C1c1c[nH]c2ccccc12`, the remaining activity was 27.7% (Protein kinase C alpha type (PRKCA, Homo sapiens, UniProt P17252); enzyme activity, inhibitor; 0.5 µM; relative to: control).

Repeated from above (set 3):
For `ACGTGCTA`, the E-score was 0.442.
With `GGACAGCA` the E-score was 0.288.
